Results from different studies.
Each numbered part is a random draw from the data of one study; scales do not carry over between parts. Substitutions count along the parent as printed.

Block 1 — method: DHFR PCA, deep sequencing; matrix: yeast; together with: (+)-ABA 17 µM; baseline: wild-type fitted maximum; reading: higher = stronger binding; endpoint: relative binding score
Target: ABI1, truncated, D143A, DHFR fusion (Arabidopsis thaliana)
Notes: methotrexate growth selection, single substitutions
Starting sequence: PYL1, truncated, DHFR fusion (Arabidopsis thaliana); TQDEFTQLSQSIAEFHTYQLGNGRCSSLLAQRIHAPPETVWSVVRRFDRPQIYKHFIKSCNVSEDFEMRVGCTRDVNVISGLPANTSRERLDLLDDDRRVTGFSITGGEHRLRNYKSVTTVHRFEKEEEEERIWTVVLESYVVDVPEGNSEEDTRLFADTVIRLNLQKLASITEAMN; partner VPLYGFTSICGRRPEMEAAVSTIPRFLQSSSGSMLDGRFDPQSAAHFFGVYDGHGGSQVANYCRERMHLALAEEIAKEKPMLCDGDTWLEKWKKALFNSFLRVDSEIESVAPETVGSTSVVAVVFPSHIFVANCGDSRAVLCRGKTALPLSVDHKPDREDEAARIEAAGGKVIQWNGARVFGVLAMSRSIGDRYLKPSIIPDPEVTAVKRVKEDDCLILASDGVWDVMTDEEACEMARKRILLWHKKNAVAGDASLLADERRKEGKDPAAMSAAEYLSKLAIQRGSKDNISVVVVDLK
D96W: -17.2%
R88H: 88.8%
K126S: 97.6%
N114Y: 11.6%
E129G: 99.2%
R32E: 78.4%
E130I: 83.2%
F124P: 29.1%
E151T: 77.7%
E38V: 22.8%
N61W: 78.3%
E125P: 86.7%
S11Q: 90.1%
V137C: 36.8%
F47P: -11.9%
V76F: -2.16%
T39A: 79.9%
K58H: 70%

Block 2 — method: RNA Bind-n-Seq; form: RNA; matrix: in vitro; tested at: not given; baseline: input RNA pool; reading: higher = stronger binding; endpoint: bound/input enrichment
Target: RING finger protein unkempt homolog, zinc fingers 1-6, GST-SBP tag (UNK, Homo sapiens, UniProt Q9C0B0, residues 30-357)
Notes: RNA with constant flanks, human-mouse chimeric sites, ends assumed
Shared flanks, not repeated: GGGAGUUCUACAGUCCGACGAUC … CAACAGAGGAUUGAGCAUCA
Construct (chain): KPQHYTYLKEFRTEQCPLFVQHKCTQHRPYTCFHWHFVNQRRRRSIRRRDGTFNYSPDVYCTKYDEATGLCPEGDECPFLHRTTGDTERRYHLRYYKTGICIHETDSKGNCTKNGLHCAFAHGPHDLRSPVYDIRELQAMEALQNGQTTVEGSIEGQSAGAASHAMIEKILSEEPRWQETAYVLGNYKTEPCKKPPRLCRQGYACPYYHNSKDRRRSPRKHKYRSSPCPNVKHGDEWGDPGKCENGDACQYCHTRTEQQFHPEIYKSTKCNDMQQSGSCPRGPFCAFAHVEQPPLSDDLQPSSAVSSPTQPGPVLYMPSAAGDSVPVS
GUGACUGACAUUAAAAUUUCCCCUCAGCAAAGAAGUGCAGUAGUCACCAUAAUUCCAUCUGUGGUGAAUGCCAAUCAGAUUGUGGAGCUGGUCCCAGACCUCAGUUUAGACAUGGGAACU: 0.309 ratio
CGGAGCCCCUCCCUCUCACAGGCCCAAGAUAUAACCCACCAGUGCCUUUUGUCUUCCUGUCAGCUCUGUCAAUCACGCCUGUCCUCUCACGCCCACACCAAGUGCCCAAAGUGGGGAGGG: 0.385 ratio
GUCAACAGCUGCCUCAAUCCCAUUCUCUACGCCUUCCUGGAUGAGAACUUCAAGGCCUGCUUCCGCAAGUUCUGCUGUGCAUCUGCCCUGCGCCGGGACGUGCAGGUGUCUGACCGCGUG: 0.453 ratio
ACACAAUAUGAGACCAACAGCAUGGACUUCAAAGUUGGGGCAGAUGGGACAGUCUUCGCCACUAGGGAGCUGCAGGUCCCCUCCGAGCAGGUGGCGUUUACCGUCACUGCAUGGGACAGC: 0.178 ratio
ACUCUUGACUCUUUCCAUCCUCUUCCUUUUCCUCUUGAUAUUCAAGGCCAUGAAUCCCAAAAUAACAGUCUUAGUGGCUAGCACCCAAACAGAGGUGGAAUAAAUCCAAACUGACAACUC: 0.554 ratio
CACUCGAGCCAGCACCAUUUCUGUUUCUCCCUGGGCUGCGGAAAGCCAGAAGAUUUUAUCUAGCUUAUACAAGGCUGCUGGUGUUCCCUCUUUUUUUCCACGAGGGUGUUUUUGGCUGCA: 0.602 ratio
GUUGCCAGCUUCCGGUUCCGUUGGGCUAGCAAGCUCCCUGAGCUACGUGUCUCUACGCUCUCAAUCCGCCAUCCAACAAACAUGGAUCAGGUAAUGCAGUUUGUGGAUGAGCCAAGUCAG: 0.0414 ratio
CACGUGUCUGCAGUACUUGAUGUGGACUACUCUCCCACUGGGAAGGAAUUUGUGUCUGCUAGUUUCGAUAAGUCUAUUAGAAUCUUUCCUGUAGACAAGAGCCGAAGCAGGGAAGUGUAU: 1.25 ratio

Block 3 — target: CCND1, cyclin fold, Cln2 fusion (human); method: yeast growth competition, sequencing; matrix: yeast; notes: weak parent motif; baseline: not given; reading: higher = stronger binding; endpoint: normalised enrichment score
Starting sequence: WEE1 docking peptide (human); HKTFRKLRLFDTP; partner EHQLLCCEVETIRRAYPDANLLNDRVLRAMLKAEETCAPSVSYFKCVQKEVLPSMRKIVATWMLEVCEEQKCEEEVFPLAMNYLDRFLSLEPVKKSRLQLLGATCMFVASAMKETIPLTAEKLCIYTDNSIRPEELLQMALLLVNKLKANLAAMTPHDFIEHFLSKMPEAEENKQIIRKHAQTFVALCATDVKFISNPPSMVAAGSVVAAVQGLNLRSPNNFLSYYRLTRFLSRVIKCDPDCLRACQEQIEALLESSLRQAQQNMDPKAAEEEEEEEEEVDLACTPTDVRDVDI
R5M: 0.424
T12P: -0.193
T12H: 0.376
L9A: 0.0305
T3E: -0.693
R8I: 0.988
F10C: -0.196
F4T: 0.706
H1L: -0.14
F4D: 0.0852
T3Q: -0.0995
K6V: -0.0708
L9R: -0.627
H1N: 0.55
K6W: 0.658
K6E: 0.0689
K6G: 0.255
L9I: -0.305
K6D: 0.266
F10L: -0.607

Single results of other studies
PhoQ, residues 284 288 289 292 302 303 STVVAA — fold induction (PhoP, residues 12 14 15 18 19 NQAHL (Escherichia coli, UniProt P23836); Sort-seq, item: YFP reporter; E. coli; PhoQ-PhoP variant library, together with: 10 µM Mg2+; baseline: high Mg2+ state, higher = stronger signaling): 0.923

Some of these lines once more (block 3):
K6E: 0.0689
F10L: -0.607
K6G: 0.255
F4D: 0.0852
K6D: 0.266
